Results of several laboratories.
Protocols differ between the studies behind these lines. ± marks the error that the study gave.
2,3-bisphosphoglycerate-independent phosphoglycerate mutase: 2,3-bisphosphoglycerate-independent phosphoglycerate mutase (Helicobacter pylori, UniProt B5Z7X6)
CYP2B6: Cytochrome P450 2B6 (CYP2B6, Homo sapiens, UniProt P20813)
Sequence of UniProt P20813 (whole entry, looked up): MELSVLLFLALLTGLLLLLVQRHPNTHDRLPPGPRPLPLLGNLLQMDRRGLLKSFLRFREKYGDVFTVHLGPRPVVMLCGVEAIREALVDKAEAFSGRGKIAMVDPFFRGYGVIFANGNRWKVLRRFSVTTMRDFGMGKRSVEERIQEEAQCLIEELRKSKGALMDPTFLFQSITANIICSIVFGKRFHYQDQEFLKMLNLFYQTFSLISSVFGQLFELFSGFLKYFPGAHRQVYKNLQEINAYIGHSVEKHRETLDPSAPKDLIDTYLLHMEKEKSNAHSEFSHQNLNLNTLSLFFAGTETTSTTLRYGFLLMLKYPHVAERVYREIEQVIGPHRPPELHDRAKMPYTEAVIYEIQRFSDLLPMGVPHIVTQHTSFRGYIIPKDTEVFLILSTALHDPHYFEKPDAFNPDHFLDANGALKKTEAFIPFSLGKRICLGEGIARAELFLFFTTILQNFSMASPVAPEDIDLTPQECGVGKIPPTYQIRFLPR
Sequence of UniProt P02769 (whole entry, looked up): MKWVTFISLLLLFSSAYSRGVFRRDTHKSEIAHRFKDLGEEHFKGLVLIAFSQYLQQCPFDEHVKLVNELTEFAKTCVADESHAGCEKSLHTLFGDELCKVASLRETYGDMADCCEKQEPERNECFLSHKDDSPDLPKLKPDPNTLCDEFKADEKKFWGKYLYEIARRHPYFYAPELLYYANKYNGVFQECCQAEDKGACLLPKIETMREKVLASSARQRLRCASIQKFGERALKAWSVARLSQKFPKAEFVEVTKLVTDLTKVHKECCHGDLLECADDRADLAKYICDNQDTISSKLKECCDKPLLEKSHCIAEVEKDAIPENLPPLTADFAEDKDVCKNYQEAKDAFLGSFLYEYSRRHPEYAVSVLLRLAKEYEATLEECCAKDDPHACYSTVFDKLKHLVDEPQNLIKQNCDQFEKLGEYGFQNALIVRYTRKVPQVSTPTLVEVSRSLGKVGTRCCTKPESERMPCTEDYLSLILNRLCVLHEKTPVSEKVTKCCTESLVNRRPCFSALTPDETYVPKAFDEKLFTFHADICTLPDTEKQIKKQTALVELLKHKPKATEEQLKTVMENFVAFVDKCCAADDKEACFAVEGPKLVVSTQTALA
Sequence of UniProt P49146 (whole entry, looked up): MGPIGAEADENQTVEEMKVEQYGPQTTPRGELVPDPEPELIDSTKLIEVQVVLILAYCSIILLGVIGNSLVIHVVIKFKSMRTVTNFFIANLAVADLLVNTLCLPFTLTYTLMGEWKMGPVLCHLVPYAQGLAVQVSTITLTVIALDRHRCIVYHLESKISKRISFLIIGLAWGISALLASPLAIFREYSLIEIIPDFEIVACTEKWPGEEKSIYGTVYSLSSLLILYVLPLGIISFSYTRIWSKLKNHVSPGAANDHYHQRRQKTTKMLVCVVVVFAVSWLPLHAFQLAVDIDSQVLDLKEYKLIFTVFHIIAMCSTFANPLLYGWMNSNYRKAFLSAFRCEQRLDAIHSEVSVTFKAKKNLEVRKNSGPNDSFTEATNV
Sequence of UniProt P25103 (whole entry, looked up): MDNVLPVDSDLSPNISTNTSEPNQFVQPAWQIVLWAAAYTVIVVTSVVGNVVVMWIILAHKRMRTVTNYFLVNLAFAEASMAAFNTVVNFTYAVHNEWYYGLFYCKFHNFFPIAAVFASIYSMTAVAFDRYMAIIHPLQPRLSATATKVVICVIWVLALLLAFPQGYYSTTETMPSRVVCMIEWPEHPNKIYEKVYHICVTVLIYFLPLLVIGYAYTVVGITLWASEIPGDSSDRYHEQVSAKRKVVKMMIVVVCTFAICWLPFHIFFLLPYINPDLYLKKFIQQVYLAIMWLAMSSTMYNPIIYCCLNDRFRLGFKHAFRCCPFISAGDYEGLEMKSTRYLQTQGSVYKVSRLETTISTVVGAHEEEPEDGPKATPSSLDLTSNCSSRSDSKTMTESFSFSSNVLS
Sequence of UniProt Q92835 (whole entry, looked up): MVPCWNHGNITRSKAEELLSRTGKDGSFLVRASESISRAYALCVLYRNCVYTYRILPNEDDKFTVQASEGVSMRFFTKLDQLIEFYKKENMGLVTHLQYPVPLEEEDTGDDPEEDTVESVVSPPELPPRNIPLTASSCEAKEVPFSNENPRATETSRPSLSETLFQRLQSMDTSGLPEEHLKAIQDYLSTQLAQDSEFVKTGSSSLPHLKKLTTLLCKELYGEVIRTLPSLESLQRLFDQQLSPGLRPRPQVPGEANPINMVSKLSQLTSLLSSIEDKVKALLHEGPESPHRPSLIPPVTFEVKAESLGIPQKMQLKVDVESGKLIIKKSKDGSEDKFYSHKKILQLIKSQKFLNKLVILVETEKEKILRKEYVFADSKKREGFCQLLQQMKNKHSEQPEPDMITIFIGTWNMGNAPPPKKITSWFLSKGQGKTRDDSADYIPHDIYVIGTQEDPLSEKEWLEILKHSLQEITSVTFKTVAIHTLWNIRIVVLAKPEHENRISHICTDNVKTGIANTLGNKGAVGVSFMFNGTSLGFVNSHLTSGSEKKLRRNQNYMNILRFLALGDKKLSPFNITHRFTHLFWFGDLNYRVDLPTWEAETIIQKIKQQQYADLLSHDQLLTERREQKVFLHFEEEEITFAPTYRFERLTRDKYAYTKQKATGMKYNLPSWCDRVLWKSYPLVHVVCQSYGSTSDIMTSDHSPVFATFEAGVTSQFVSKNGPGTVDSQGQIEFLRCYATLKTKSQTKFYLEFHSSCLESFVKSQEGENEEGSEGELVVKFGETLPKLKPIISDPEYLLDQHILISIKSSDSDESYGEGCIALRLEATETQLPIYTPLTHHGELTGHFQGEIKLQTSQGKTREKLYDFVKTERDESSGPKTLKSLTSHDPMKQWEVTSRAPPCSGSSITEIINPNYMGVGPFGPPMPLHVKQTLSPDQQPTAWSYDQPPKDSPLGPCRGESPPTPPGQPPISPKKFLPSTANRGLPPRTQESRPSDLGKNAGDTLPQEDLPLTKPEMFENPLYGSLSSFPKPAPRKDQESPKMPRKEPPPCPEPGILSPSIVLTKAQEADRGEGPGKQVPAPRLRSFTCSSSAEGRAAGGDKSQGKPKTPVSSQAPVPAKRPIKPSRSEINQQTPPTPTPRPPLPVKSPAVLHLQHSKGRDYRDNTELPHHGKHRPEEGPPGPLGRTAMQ
Sequence of UniProt Q7KQM4 (whole entry, looked up): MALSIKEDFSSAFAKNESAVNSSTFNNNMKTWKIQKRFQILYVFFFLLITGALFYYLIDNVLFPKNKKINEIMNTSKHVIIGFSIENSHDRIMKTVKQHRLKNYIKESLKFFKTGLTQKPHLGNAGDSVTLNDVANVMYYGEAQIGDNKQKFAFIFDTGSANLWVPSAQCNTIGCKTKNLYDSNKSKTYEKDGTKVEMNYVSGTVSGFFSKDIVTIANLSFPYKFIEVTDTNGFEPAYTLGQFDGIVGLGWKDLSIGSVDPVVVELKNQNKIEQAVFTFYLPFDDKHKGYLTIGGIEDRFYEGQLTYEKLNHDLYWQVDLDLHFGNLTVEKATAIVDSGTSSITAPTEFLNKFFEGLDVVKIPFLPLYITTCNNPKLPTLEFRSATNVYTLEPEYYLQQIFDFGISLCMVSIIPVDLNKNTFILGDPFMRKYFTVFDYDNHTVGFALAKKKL

SMILES	tested on	test	test system	conditions	endpoint	result
Cc1cc(O)cc(C)c1C[C@H](N)C(=O)N[C@H](C)C(=O)NCC(=O)N[C@@H](Cc1ccc(F)cc1)C(=O)N1CCC[C@H]1C(=O)N[C@@H](CC(C)C)C(=O)N[C@@H](Cc1c[nH]c2ccccc12)C(=O)NCc1cc(C(F)(F)F)cc(C(F)(F)F)c1	TACR1 (Homo sapiens, UniProt P25103)	cAMP, antagonist	–	–	Kb	125 nM
CC(C)[C@@H]1NC(=O)[C@H](CCCNC(=N)N)NC(=O)[C@H](Cc2ccc(O)cc2)NC(=O)[C@H](CO)NC(=O)[C@H](Cc2ccc(O)cc2)N(C)C(=O)[C@H](CC(N)=O)NC(=O)CNC(=O)[C@H](Cc2ccc(O)cc2)N(C)C(=O)[C@H](Cc2ccccc2)N(C)C(=O)[C@H](CC(=O)O)NC(=O)[C@H](Cc2ccc(O)cc2)NC(=O)[C@H](Cc2ccccc2)N(C)C(=O)[C@H](Cc2ccc(O)cc2)N(C)C(=O)[C@H](Cc2ccc(O)cc2)NC(=O)CSC[C@@H](C(N)=O)NC(=O)[C@@H]2CCCN2C1=O	2,3-bisphosphoglycerate-independent phosphoglycerate mutase	biochemical	–	–	AC50	5890 nM
C[C@@H](NC(=O)[C@@H](CCC(N)=O)NC(=O)[C@@H](C)NC(=O)[C@@H](CCCCN)NC(=O)[C@@H](CCC(N)=O)NC(=O)[C@@H](C)NC(=O)[C@@H](CCCCN)NC(=O)[C@@H](CCC(N)=O)NC(=O)[C@@H](C)NC(=O)[C@@H](CCC(N)=O)NC(=O)[C@@H](CCCCN)NC(=O)[C@@H](C)NC(=O)[C@@H](CCC(N)=O)NC(=O)[C@@H](CCCCN)NC(=O)[C@@H](C)NC(=O)[C@@H](CCC(N)=O)NC(=O)[C@@H](C)NC(=O)[C@@H](CCCCN)NC(=O)[C@@H](CCC(N)=O)NC(=O)[C@@H](C)NC(=O)[C@@H](CCCCN)NC(=O)[C@@H](CO)NC(=O)[C@@H](Cc1ccc(O)cc1)NC(=O)CNC(=O)CNC(=O)CN)C(=O)N[C@H](CCCCN)C(=O)N[C@H](CCC(N)=O)C(=O)N[C@H](C)C(=O)N[C@H](CCCCN)C(=O)N[C@H](CCC(N)=O)C(=O)O	–	binding, SPR two-state model	rVλ6Wil fibrils	–	Kd	22 nM
CCCCCc1cc(O)c2c(c1)OC(C)(C)C1CCC(C)=CC21 (single isomer, unassigned; (-))	CYP2B6	inhibitor	HEK293 overexpressing CYP2B6, recombinant microsomes	pH 7.4, corrected for incubation binding, with: bupropion 12.5 to 100 µM	Ki	250 ± 43 nM
CC(=O)N[C@@H](CCCNC(=N)N)C(=O)N[C@H](Cc1ccc(O)cc1)C(=O)N[C@@H](CCCNC(=N)NC(=O)NCCCCN)C(=O)N[C@@H](CC(C)C)C(=O)N[C@@H](CCCNC(=N)N)C(=O)N[C@@H](Cc1ccc(O)cc1)C(N)=O	NPY2R (Homo sapiens, UniProt P49146)	ligand displacement, radioligand	–	–	Ki	> 5000 nM
CC(=O)N[C@@H](Cc1c[nH]cn1)C(=O)N[C@@H](CCCNC(=N)N)C(=O)N[C@@H](CCCNC(=N)N)C(=O)N[C@@H](CCCNC(=N)N)C(=O)N[C@@H](CCCNC(=N)N)C(=O)N[C@@H](CCCNC(=N)N)C(=O)N[C@@H](CCCNC(=N)N)C(=O)N[C@@H](CCCNC(=N)N)C(=O)N[C@@H](CCCNC(=N)N)C(=O)N[C@@H](Cc1c[nH]cn1)C(N)=O	Albumin (ALB, Bos taurus, UniProt P02769)	fluorescence quenching	–	with: site competitor ibuprofen	Kb	240000 M⁻¹
CN1C(=O)[C@H](Cc2ccc(O)cc2)NC(=O)CNC(=O)[C@H](Cc2ccc(O)cc2)NC(=O)[C@H](CCC(=O)O)NC(=O)[C@H](Cc2ccc(O)cc2)N(C)C(=O)[C@H](Cc2ccc(O)cc2)N(C)C(=O)[C@H](CCC(N)=O)NC(=O)[C@H](Cc2c[nH]c3ccccc23)NC(=O)[C@H](Cc2ccc(O)cc2)NC(=O)[C@@H](Cc2ccc(O)cc2)NC(=O)CSC[C@@H](C(N)=O)NC(=O)[C@H](CCCCN)NC(=O)[C@@H]1Cc1ccc(O)cc1	2,3-bisphosphoglycerate-independent phosphoglycerate mutase	biochemical	–	–	AC50	1450 nM
CC(C)C[C@H](NC(=O)[C@H](CO)NC(=O)CNC(=O)[C@H](N)CO)C(=O)N[C@@H](CO)C(=O)N[C@H](C(=O)N[C@@H](Cc1ccccc1)C(=O)N[C@@H](Cc1ccccc1)C(=O)N[C@@H](CCCNC(=N)N)C(=O)N[C@@H](CC(C)C)C(=O)N[C@@H](Cc1ccccc1)C(=O)N[C@@H](CC(N)=O)C(=O)N[C@@H](CCCNC(=N)N)C(=O)N[C@@H](CO)C(=O)N[C@@H](Cc1ccccc1)C(=O)N[C@H](C(=O)N[C@@H](CCC(N)=O)C(=O)N[C@@H](C)C(=O)O)[C@@H](C)O)[C@@H](C)O	uncharacterized protein (Streptococcus mutans serotype c, UniProt Q8DS94)	–	Streptococcus mutans	–	EC50	6.4 nM
N=C(N)NCCC[C@@H]1NC(=O)[C@H](CCCCNC(=O)CCOCCOCCOCCOCCNC(=O)CN2CCN(CC(=O)O)CCN(CC(=O)O)CCN(CC(=O)O)CC2)NC(=O)[C@@H](Cc2ccccc2)NC(=O)[C@H](CC(=O)O)NC(=O)CNC1=O [indium-111 labelled]	–	–	female athymic nude mice, heart	intravenous, 3 µCi, 72 h, U-87 MG glioma xenograft	tissue uptake	0.09 ± 0.01 %ID/g
CC(C)C[C@@H](CN[C@@H](C)C(=O)N[C@@H](Cc1c[nH]c2ccccc12)C(=O)N[C@H](C(=O)O)[C@@H](C)O)NC(=O)[C@H](CCC(=O)O)NC(=O)[C@H](Cc1ccccc1)NC(=O)[C@@H]1CCCN1C(=O)[C@@H](N)CCCCN	Plasmepsin I (PMI, Plasmodium falciparum, UniProt Q7KQM4)	–	–	–	Ki	42000 ± 7000 nM
CCCCCc1cc(O)c2c(c1)OC(C)(C)C1CCC(CO)=CC21 (stereo not drawn)	CYP2B6	inhibitor	human, pooled liver microsomes	pH 7.4, with: bupropion	IC50	770 ± 350 nM
CSc1ccc2c(c1)c(CCN)c(C)n2Cc1ccccc1Cl	INPP5D (Homo sapiens, UniProt Q92835)	target engagement	HMC3 expressing HiBiT-INPP5D	60 min, 37 °C	AC50	89000 ± 11000 nM

Repeated from above:
SMILES	tested on	test	test system	conditions	endpoint	result
CC(C)C[C@@H](CN[C@@H](C)C(=O)N[C@@H](Cc1c[nH]c2ccccc12)C(=O)N[C@H](C(=O)O)[C@@H](C)O)NC(=O)[C@H](CCC(=O)O)NC(=O)[C@H](Cc1ccccc1)NC(=O)[C@@H]1CCCN1C(=O)[C@@H](N)CCCCN	Plasmepsin I (PMI, Plasmodium falciparum, UniProt Q7KQM4)	–	–	–	Ki	42000 ± 7000 nM
